Results collected from several papers.
Compare with care: the assays were run in different laboratories.
B1: NFR5 276-595 L290E/L291E (Lotus japonicus, UniProt Q70KR1); chain ALNRTASSAETADKEESGVSGYVSKPNVYEIDEIMEATKDFSDECKVGESVYKANIEGRVVAVKKIKEGGANEELKILQKVNHGNLVKLMGVSSGYDGNCFLVYEYAENGSLAEWLFSKSSGTPNSLTWSQRISIAVDVAVGLQYMHEHTYPRIIHRDITTSNILLDSNFKAKIANFAMARTSTNPMMPKIDVFAFGVLLIELLTGRKAMTTKENGEVVMLWKDMWEIFDIEENREERIRKWMDPNLESFYHIDNALSLASLAVNCTADKSLSRPSMAEIVLSLSFLTQQSSNPTLERSLTSSGLDVEDDAHIVTSITAR
B2: ANPEP 66-967 (Homo sapiens, UniProt P15144); chain DQSKAWNRYRLPNTLKPDSYRVTLRPYLTPNDRGLYVFKGSSTVRFTCKEATDVIIIHSKKLNYTLSQGHRVVLRGVGGSQPPDIDKTELVEPTEYLVVHLKGSLVKDSQYEMDSEFEGELADDLAGFYRSEYMEGNVRKVVATTQMQAADARKSFPCFDEPAMKAEFNITLIHPKDLTALSNMLPKGPSTPLPEDPNWNVTEFHTTPKMSTYLLAFIVSEFDYVEKQASNGVLIRIWARPSAIAAGHGDYALNVTGPILNFFAGHYDTPYPLPKSDQIGLPDFNAGAMENWGLVTYRENSLLFDPLSSSSSNKERVVTVIAHELAHQWFGNLVTIEWWNDLWLNEGFASYVEYLGADYAEPTWNLKDLMVLNDVYRVMAVDALASSHPLSTPASEINTPAQISELFDAISYSKGASVLRMLSSFLSEDVFKQGLASYLHTFAYQNTIYLNLWDHLQEAVNNRSIQLPTTVRDIMNRWTLQMGFPVITVDTSTGTLSQEHFLLDPDSNVTRPSEFNYVWIVPITSIRDGRQQQDYWLIDVRAQNDLFSTSGNEWVLLNLNVTGYYRVNYDEENWRKIQTQLQRDHSAIPVINRAQIINDAFNLASAHKVPVTLALNNTLFLIEERQYMPWEAALSSLSYFKLMFDRSEVYGPMKNYLKKQVTPLFIHFRNNTNNWREIPENLMDQYSEVNAISTACSNGVPECEEMVSGLFKQWMENPNNNPIHPNLRSTVYCNAIAQGGEEEWDFAWEQFRNATLVNEADKLRAALACSKELWILNRYLSYTLNPDLIRKQDATSTIISITNNVIGQGLVWDFVQSNWKKLFNDYGGGSFSFSNLIQAVTRRFSTEYELQQLEQFKKDNEETGFGSGTRALEQALEKTKANIKWVKENKEVVLQWFTENSK
B3: pnp 1-763 R112A (Mycobacterium smegmatis, UniProt A0QVQ5); chain MSVVELEDGVYESTAVIDNGSFGTRTIRFETGRLAQQAAGSAVAYLDDETMLLSATTASKNPKDHFDFFPLTVDVEERMYAAGRIPGSFFRREGRPSTDAILTCRLIDRPLAPSFVDGLRNEIQVVVTVMSLDPKDLYDVLAINAASMSTQLAGLPFSGPVGGARIALIDGTWVAFPTVEQLERAVFDMVVAGRIVGDGDSADVAIMMVEAEATENVVELVAGGAQAPTEAVVAEGLEAAKPFIKALCAAQQELADRAAKPAGEYPVFPDYEADVYDAVASVATEALAEALTIAGKTERNDRTDEIKVEVLERLAEPYAGREKEIGAAFRSLTKKLVRQRILTDHFRIDGRGITDIRALSAEVAVIPRAHGSALFERGETQILGVTTLDMIKMAQQIDSLGPENTKRYMHHYNFPPYSTGETGRVGSPKRREIGHGALAERALVPVLPSIEEFPYAIRQVSEALGSNGSTSMGSVCASTLALLNAGVPLKAPVAGIAMGLVSDDVDVDGKVEKRYVALTDILGAEDAFGDMDFKVAGTKDFVTALQLDTKLDGIPSQVLAGALSQAKDARLTILDVMAEAIDRPDEMSPYAPRITTIKVPVDKIGEVIGPKGKMINSITEETGAQISIEDDGTVFVGAADGLSAQAAIDKINAIANPQLPKVGERFLGTVVKTTDFGAFVSLLPGRDGLVHISKLGKGKRIAKVEDVVKVGDKLRVEIADIDNRGKISLVLVAEESAESAESAGDKGAEKAEGAAADVTPAEA
B4: crcB 1-128 R29K/N43S/R124C (Bordetella pertussis, UniProt Q7VYU0); chain MLTYAPLNFIAIGIGATLGAWLRWVLGLKLNGAGWPWGTLTASLVGGYLIGVMVALIASHPEWPAWIRLAAVTGFLGGLTTFSTFSAETVDMLERGVYATAAAYAGASLAGSLAMTGLGLATVCLLLR
B5: pnp 1-763 T470A/S471A (Mycobacterium smegmatis, UniProt A0QVQ5); chain MSVVELEDGVYESTAVIDNGSFGTRTIRFETGRLAQQAAGSAVAYLDDETMLLSATTASKNPKDHFDFFPLTVDVEERMYAAGRIPGSFFRREGRPSTDAILTCRLIDRPLRPSFVDGLRNEIQVVVTVMSLDPKDLYDVLAINAASMSTQLAGLPFSGPVGGARIALIDGTWVAFPTVEQLERAVFDMVVAGRIVGDGDSADVAIMMVEAEATENVVELVAGGAQAPTEAVVAEGLEAAKPFIKALCAAQQELADRAAKPAGEYPVFPDYEADVYDAVASVATEALAEALTIAGKTERNDRTDEIKVEVLERLAEPYAGREKEIGAAFRSLTKKLVRQRILTDHFRIDGRGITDIRALSAEVAVIPRAHGSALFERGETQILGVTTLDMIKMAQQIDSLGPENTKRYMHHYNFPPYSTGETGRVGSPKRREIGHGALAERALVPVLPSIEEFPYAIRQVSEALGSNGSAAMGSVCASTLALLNAGVPLKAPVAGIAMGLVSDDVDVDGKVEKRYVALTDILGAEDAFGDMDFKVAGTKDFVTALQLDTKLDGIPSQVLAGALSQAKDARLTILDVMAEAIDRPDEMSPYAPRITTIKVPVDKIGEVIGPKGKMINSITEETGAQISIEDDGTVFVGAADGLSAQAAIDKINAIANPQLPKVGERFLGTVVKTTDFGAFVSLLPGRDGLVHISKLGKGKRIAKVEDVVKVGDKLRVEIADIDNRGKISLVLVAEESAESAESAGDKGAEKAEGAAADVTPAEA
B6: FAM222A del91-300 (Homo sapiens, UniProt Q5U5X8); sequence looked up; chain MLACLQRTQNAPGQHLACPSKSLELRKCEAVASAMHSSRYPSPAELDAYAEKVANSPLSIKIFPTNIRVPQHKHLSRTVNGYDTSGQRYSRAYSGSTVASKSPEACGGRAYERASGSPLNCGVGLPTSFTVGQYFAAPWNSVLVTPTSDCYNPAAAVVVTELGPGAARELAGPPADALSGLPSKSVCNTSVLSSSLQSLEYLINDIRPPCIKEQMLGKGYETVAVPRLLDHQHAHIRLPVYR
B7: mpr E155A (Mycobacterium smegmatis, UniProt Q50442); chain MTTPQPYPGMPSQPAPQGVPYPPQQPAKKKRKWPAIVGGVIALMIVGSIFNDDKKDTTPAENTATVAQAPAAAPTKEVPETTATINTPVRDGKFEFVVRSVEPGLSEVGDNPFLNQKAQGQFVIVTLSVQNIGDRPQGFSPSNQKLFDTEGRSFATDTSAQIALDNNDIAVWDNINPGNTVDVSLVYDMPVDAVPASIELHDSMFSGGVTVNLTP
UniProt P67087, sequence (whole entry, looked up): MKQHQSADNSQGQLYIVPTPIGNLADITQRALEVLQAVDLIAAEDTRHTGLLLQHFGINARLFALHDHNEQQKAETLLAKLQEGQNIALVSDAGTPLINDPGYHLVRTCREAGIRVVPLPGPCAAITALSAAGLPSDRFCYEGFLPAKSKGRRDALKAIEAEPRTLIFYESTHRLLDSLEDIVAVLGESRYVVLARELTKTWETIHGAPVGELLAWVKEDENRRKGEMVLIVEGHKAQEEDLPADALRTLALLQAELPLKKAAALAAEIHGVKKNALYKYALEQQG

Substance	target or system	test	test system	conditions	how to read	quantity	value
B1 (NFR5 276-595 L290E/L291E)	itself	dynamic light scattering				binding	binds
B2 (ANPEP 66-967)	itself	cryo-EM				binding	binds
rsmI (Escherichia coli, UniProt P67087)	itself	cryo-EM				binding	binds
B3 (pnp 1-763 R112A)	itself	SEC				binding	binds
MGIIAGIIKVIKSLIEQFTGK (psmA1 (Staphylococcus aureus, UniProt H9BRQ5); N-terminal formyl; sequence looked up)	itself	cryo-EM	peptide			binding	binds
insulin human		measured: SYN2 mRNA	EcoHIV-infected mouse, brain	i.p., dose not given	reference: PBS	fold change	1.04
B4 (crcB 1-128 R29K/N43S/R124C)	itself	SEC				binding	binds
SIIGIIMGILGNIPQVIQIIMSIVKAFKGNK (Candidalysin mature (Candida albicans))	itself	negative stain electron microscopy	peptide			binding	binds
B5 (pnp 1-763 T470A/S471A)	itself	SEC				binding	binds
B6 (FAM222A del91-300)	itself	SDD-AGE				binding	binds
B7 (mpr E155A)	itself	cross-linking		added: GTP		binding	binds

Excerpt of the above:
Substance	target or system	test	test system	conditions	how to read	quantity	value
rsmI (Escherichia coli, UniProt P67087)	itself	cryo-EM				binding	binds
